Measured values pooled from the literature.
“And” joins repeats or separate records; there may be more than shown. ± gives the spread as reported.
Genome polyprotein NS3 helicase domain: Genome polyprotein, NS3 helicase domain (Hepatitis C virus genotype 1b, UniProt Q9WMX2)
Sequence of UniProt P30530 (whole entry, looked up): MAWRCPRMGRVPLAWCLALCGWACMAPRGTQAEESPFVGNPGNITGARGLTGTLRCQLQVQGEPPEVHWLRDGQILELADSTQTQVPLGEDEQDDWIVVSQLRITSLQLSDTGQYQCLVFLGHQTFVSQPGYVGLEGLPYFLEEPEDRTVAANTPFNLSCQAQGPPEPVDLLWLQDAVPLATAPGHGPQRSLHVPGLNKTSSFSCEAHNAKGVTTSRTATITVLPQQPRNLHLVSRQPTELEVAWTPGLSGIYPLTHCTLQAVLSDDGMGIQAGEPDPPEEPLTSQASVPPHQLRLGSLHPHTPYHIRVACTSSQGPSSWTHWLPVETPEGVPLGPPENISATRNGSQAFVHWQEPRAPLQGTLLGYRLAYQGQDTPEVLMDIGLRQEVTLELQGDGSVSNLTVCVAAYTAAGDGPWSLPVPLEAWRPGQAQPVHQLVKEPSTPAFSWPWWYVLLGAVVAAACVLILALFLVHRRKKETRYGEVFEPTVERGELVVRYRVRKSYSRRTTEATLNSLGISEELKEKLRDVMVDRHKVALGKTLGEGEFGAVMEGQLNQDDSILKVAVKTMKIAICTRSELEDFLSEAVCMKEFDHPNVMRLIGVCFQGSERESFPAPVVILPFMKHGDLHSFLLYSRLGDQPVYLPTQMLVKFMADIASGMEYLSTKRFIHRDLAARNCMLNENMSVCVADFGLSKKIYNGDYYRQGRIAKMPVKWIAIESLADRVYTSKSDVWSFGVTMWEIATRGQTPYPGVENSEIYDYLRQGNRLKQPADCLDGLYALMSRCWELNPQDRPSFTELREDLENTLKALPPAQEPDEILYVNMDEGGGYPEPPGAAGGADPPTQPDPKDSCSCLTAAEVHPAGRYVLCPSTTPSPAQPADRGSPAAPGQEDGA
Sequence of UniProt P32247 (whole entry, looked up): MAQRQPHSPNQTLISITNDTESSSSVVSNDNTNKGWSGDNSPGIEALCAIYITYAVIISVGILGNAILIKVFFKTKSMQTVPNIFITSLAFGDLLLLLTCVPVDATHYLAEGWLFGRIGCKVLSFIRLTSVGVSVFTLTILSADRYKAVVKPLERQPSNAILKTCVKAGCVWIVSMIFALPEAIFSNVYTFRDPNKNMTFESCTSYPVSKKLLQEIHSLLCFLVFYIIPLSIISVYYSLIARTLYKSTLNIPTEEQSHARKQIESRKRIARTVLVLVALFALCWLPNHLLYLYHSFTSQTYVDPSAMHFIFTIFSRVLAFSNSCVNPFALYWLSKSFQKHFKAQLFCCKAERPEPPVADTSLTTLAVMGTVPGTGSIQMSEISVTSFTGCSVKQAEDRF
Sequence of UniProt P18089 (whole entry, looked up): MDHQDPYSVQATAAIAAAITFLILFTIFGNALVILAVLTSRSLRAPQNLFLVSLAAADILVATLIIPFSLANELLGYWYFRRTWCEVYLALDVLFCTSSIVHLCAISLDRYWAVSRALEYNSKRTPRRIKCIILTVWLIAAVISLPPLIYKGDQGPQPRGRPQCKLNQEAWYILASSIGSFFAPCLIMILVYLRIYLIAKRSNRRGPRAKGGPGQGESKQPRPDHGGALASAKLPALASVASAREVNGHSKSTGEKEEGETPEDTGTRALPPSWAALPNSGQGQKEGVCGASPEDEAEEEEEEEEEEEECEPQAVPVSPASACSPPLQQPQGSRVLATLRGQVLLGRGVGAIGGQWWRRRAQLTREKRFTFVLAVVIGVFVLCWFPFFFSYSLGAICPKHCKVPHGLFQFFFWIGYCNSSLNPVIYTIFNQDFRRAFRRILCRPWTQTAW
Sequence of UniProt P62593 (whole entry, looked up): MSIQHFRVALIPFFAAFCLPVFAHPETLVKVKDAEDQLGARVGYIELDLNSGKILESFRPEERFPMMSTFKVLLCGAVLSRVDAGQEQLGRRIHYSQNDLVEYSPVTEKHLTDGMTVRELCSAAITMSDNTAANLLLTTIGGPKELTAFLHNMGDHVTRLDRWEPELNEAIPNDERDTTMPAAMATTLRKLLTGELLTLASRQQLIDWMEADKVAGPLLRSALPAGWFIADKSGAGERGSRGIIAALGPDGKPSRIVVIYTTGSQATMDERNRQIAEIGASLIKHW

CC(C)N1CCC[C@H]1CNC(=O)c1cn(C2CCCC2)c(=O)c2c1c1ccccc1n2C  inhibition (NMDA receptor phencyclidine site, rat; radioligand binding; 10 µM): 18%
N#CC(C#N)=Cc1ccc(O)c(O)c1  inhibition (Genome polyprotein NS3 helicase domain; DNA binding, inhibitor; hepatitis C virus; 100 µM, added: Cy5-dT15 DNA): 0%
FC(F)(F)c1cccc(Nc2nc(NCCOc3ccccc3)nc3[nH]cnc23)c1  inhibition (AXL (Homo sapiens, UniProt P30530); enzyme activity, inhibitor, Thermo Fisher kinase screening; 5 µM): 9% and 20%
CN1CCN(c2cc(-c3ccncc3)c(-c3ccc4ccccc4c3)nn2)CC1  inhibition (S1PR5 (Homo sapiens, UniProt Q9H228); antagonist, FLIPR; 10 µM): -4.6%
NC(N)=NOCC[C@H](N)C(=O)O  inhibition (Genome polyprotein NS3 helicase domain; DNA binding, inhibitor; hepatitis C virus; 100 µM, added: Cy5-dT15 DNA): 0%
CN(C(=O)n1cnc(-c2ccc[n+]([O-])c2)c1)C1CCCCC1  inhibition (MC4R (Homo sapiens, UniProt P32245); binding; 10 µM): 4%
NCCc1c[nH]c2ccccc12  inhibition (Genome polyprotein NS3 helicase domain; DNA binding, inhibitor; hepatitis C virus; 100 µM, added: Cy5-dT15 DNA): 0%
COc1cc(Nc2ncc(F)c(Nc3ccc4c(n3)NC(=O)C(C)(C)O4)n2)cc(OC)c1OC  inhibition (CDK13 (Homo sapiens, UniProt Q14004); binding, KINOMEscan; 10 µM, CDC2L5 kinase): 0%
Cc1ncc(C)n2nc(/C=C/c3nc(N4CCCC4)cc(N4CCOCC4)n3)nc12  inhibition (I1 receptor; binding; 10 µM): -35%
O=C(Nc1cnccc1Cl)N1CCN(Cc2ccc3c(c2)OC(F)(F)O3)CC1  inhibition (GABA transporter, rat; binding; 10 µM, added: [3H]GABA): 6%
C#Cc1n[nH]c2c(-c3cn([C@@H](C)c4ccccc4)c(=O)[nH]c3=O)cc(F)cc12  inhibition (Phosphatidylinositol 4,5-bisphosphate 3-kinase catalytic subunit beta isoform, with p85 alpha (PIK3CB, Homo sapiens, UniProt P42338); kinase activity, inhibitor; 100 nM): -2.8%
NCc1ccc(S(N)(=O)=O)cc1  inhibition (Gag polyprotein, nucleocapsid protein p7 (gag, Human immunodeficiency virus type 1 group M subtype B, UniProt P04591); NCp7-RNA binding, AlphaScreen; HIV-1; 45 µM): > 50%
O=C(O)c1cc[c]([Hg][Cl])cc1  inhibition (Beta-lactamase TEM (bla, Escherichia coli, UniProt P62593); inhibitor; concentration not given): no inhibition
O=c1ccc2ccccc2o1  inhibition (ADRA1A (Homo sapiens, UniProt P35348); antagonist radioligand binding; 10 µM, SafetyScreen44): 2.65%
CN(CCN1CCC(OC(=O)Nc2ccccc2-c2ccccc2)CC1)C(=O)c1ccc(CN2CCC(C(N)=O)CC2)cc1  inhibition (guanylyl cyclase; enzyme activity; 1 µM): 4%
CC[C@H](C)[C@H](NC(=O)[C@@H](NC(=O)[C@H](N)Cc1ccccc1)C(C)C)C(=O)N[C@@H](C)C(N)=O  inhibition (APP (Homo sapiens, UniProt P05067); aggregation, inhibitor, thioflavin T fluorescence; 2 µM): 91.8%
COc1ccc(N2C(=O)N(c3c(C)cccc3Cl)Cc3cnc(Nc4ccc(C5CCN(C)CC5)cc4OC)nc32)nc1  inhibition (MAP3K5 (Homo sapiens, UniProt Q99683); kinase activity, inhibitor; 0.5 µM, ASK1): 1.73%
Cn1cccc1-c1cccnc1  inhibition (ADRA2B (Homo sapiens, UniProt P18089); binding; 50 µM): -12.9%
O=C(Nc1cccnn1)N1CCC(=Cc2cccc(Oc3ccc(C(F)(F)F)cn3)c2)CC1  inhibition (BRS3 (Homo sapiens, UniProt P32247); radioligand binding; concentration not given): 11% and 19%
COC(=O)C1=CCCN(C)C1  inhibition (Genome polyprotein NS3 helicase domain; DNA binding, inhibitor; hepatitis C virus; 100 µM, added: Cy5-dT15 DNA): 0%
COC(=O)c1ccc(C(=O)OC)c(NC(=O)CN2CCN(C(=O)COc3ccc4ccccc4c3)CC2)c1  inhibition (uncharacterized protein (Erigeron canadensis, UniProt A0A8M0FGR5); enzyme activity; 100 mg/L): > 30%
C[N+](C)(C)CCCCCCCCCC[N+](C)(C)C.[Br-].[Br-]  inhibition (Genome polyprotein NS3 helicase domain; DNA binding, inhibitor; hepatitis C virus; 100 µM, added: Cy5-dT15 DNA): 2%
O=C(Nc1cccnn1)N1CCN([C@@H]2CCOc3cc(C(F)(F)F)ccc32)CC1  inhibition (HTR6 (Homo sapiens, UniProt P50406); Cerep BioPrint; 20 µM, human 5-HT6): 50%
Cl.Clc1ccc(N2CCN(Cc3c[nH]c4ncccc34)CC2)cc1  inhibition (Genome polyprotein NS3 helicase domain; DNA binding, inhibitor; hepatitis C virus; 100 µM, added: Cy5-dT15 DNA): 12%
CC1(C)Cc2cccc(OCC(=O)N3CCC(C(=O)Nc4ccc5c(c4)OCO5)CC3)c2O1  inhibition (Trypanothione synthetase (Leishmania infantum, UniProt A4I2Z3); enzyme activity; 25 µM): 12.6 ± 15.1%
Br.CCCN(CCC)C1CCc2cccc(O)c2C1 (racemic)  inhibition (Genome polyprotein NS3 helicase domain; DNA binding, inhibitor; hepatitis C virus; 100 µM, added: Cy5-dT15 DNA): 2%
CC(=O)NC[C@H]1[C@H](O)[C@H](O)[C@@H]2[C@H](O)C[C@@H](CO)N21  inhibition (Spodoptera litura β-N-acetylglucosaminidase; crude enzyme; 0.00627 µM, run 2, added: p-nitrophenyl GlcNAc): 33.9%
CC[C@@]1(O)C(=O)OCc2c1cc1n(c2=O)Cc2cc3ccccc3nc2-1  inhibition (Genome polyprotein NS3 helicase domain; DNA binding, inhibitor; hepatitis C virus; 100 µM, added: Cy5-dT15 DNA): 0%
c1ccc(C(NCCNC(c2ccccc2)c2ccccc2)c2ccccc2)cc1  inhibition (steroid 5alpha-reductase (rat); Eurofins selectivity panel; 10 µM): 99%

A few entries again:
Cn1cccc1-c1cccnc1  inhibition (ADRA2B (Homo sapiens, UniProt P18089); binding; 50 µM): -12.9%
O=C(Nc1cccnn1)N1CCC(=Cc2cccc(Oc3ccc(C(F)(F)F)cn3)c2)CC1  inhibition (BRS3 (Homo sapiens, UniProt P32247); radioligand binding; concentration not given): 11% and 19%
COC(=O)C1=CCCN(C)C1  inhibition (Genome polyprotein NS3 helicase domain; DNA binding, inhibitor; hepatitis C virus; 100 µM, added: Cy5-dT15 DNA): 0%
COC(=O)c1ccc(C(=O)OC)c(NC(=O)CN2CCN(C(=O)COc3ccc4ccccc4c3)CC2)c1  inhibition (uncharacterized protein (Erigeron canadensis, UniProt A0A8M0FGR5); enzyme activity; 100 mg/L): > 30%
